Published values from different studies.
± gives the spread as reported.
Technique: steady-state kinetics
B1: pyc H216N (Rhizobium etli, UniProt Q2K340); chain MPISKILVANRSEIAIRVFRAANELGIKTVAIWAEEDKLALHRFKADESYQVGRGPHLARDLGPIESYLSIDEVIRVAKLSGADAIHPGYGLLSESPEFVDACNKAGIIFIGPKADTMRQLGNKVAARNLAISVGVPVVPATEPLPDDMAEVAKMAAAIGYPVMLKASWGGGGRGMRVIRSEADLAKEVTEAKREAMAAFGKDEVYLEKLVERARNVESQILGDTHGNVVHLFERDCSVQRRNQKVVERAPAPYLSEAQRQELAAYSLKIAGATNYIGAGTVEYLMDADTGKFYFIEVNPRIQVEHTVTEVVTGIDIVKAQIHILDGAAIGTPQSGVPNQEDIRLNGHALQCRVTTEDPEHNFIPDYGRITAYRSASGFGIRLDGGTSYSGAIITRYYDPLLVKVTAWAPNPLEAISRMDRALREFRIRGVATNLTFLEAIIGHPKFRDNSYTTRFIDTTPELFQQVKRQDRATKLLTYLADVTVNGHPEAKDRPKPLENAARPVVPYANGNGVKDGTKQLLDTLGPKKFGEWMRNEKRVLLTDTTMRDGHQSLLATRMRTYDIARIAGTYSHALPNLLSLECWGGATFDVSMRFLTEDPWERLALIREGAPNLLLQMLLRGANGVGYTNYPDNVVKYFVRQAAKGGIDLFRVFDCLNWVENMRVSMDAIAEENKLCEAAICYTGDILNSARPKYDLKYYTNLAVELEKAGAHIIAVKDMAGLLKPAAAKVLFKALREATGLPIHFHTHDTSGIAAATVLAAVEAGVDAVDAAMDALSGNTSQPCLGSIVEALSGSERDPGLDPAWIRRISFYWEAVRNQYAAFESDLKGPASEVYLHEMPGGQFTNLKEQARSLGLETRWHQVAQAYADANQMFGDIVKVTPSSKVVGDMALMMVSQDLTVADVVSPDREVSFPESVVSMLKGDLGQPPSGWPEALQKKALKGEKPYTVRPGSLLKEADLDAERKVIEKKLEREVSDFEFASYLMYPKVFTDFALASDTYGPVSVLPTPAYFYGLADGEELFADIEKGKTLVIVNQAVSATDSQGMVTVFFELNGQPRRIKVPDRAHGATGAAVRRKAEPGNAAHVGAPMPGVISRVFVSSGQAVNAGDVLVSIEAMKMETAIHAEKDGTIAEVLVKAGDQIDAKDLLAVYGG
B2: protein P94L (Streptomyces coelicolor, UniProt P16544); chain MATQDSEVALVTGATSGIGLEIARRLGKEGLRVFVCARGEEGLRTTLKELREAGVEADGRTCDVRSVPEIEALVAAVVERYGPVDVLVNNAGRLGGGATAELADELWLDVVETNLTGVFRVTKQVLKAGGMLERGTGRIVNIASTGGKQGVVHAAPYSASKHGVVGFTKALGLELARTGITVNAVCPGFVETPMAASVREHYSDIWEVSTEEAFDRITARVPIGRYVQPSEVAEMVAYLIGPGAAAVTAQALNVCGGLGNY
B3: enzyme P89Y (Thermobifida fusca, UniProt Q47RA9); chain MIMIMASKSSPHDLPDVSGLSIAVLGGTGDQGRGLARRFAMAGHEVILGSRSAERAQAVAAELGEGLPVRGMDNAGAAEAGDVVIVAVYWDGHRALLESLKDVLAGKIVVDCVNPLGFDKRGAYALPVEEGSAAEQAAAILPDSRVVAAFHHVSAVLLLDPEVEKVDLDVLVLGDDREATDVVRALAARIPGVRGVYGGRLRNAHQVEAFTANLISINRRYKAHAGIRITDI
B4: enzyme (UniProt A0A2T5C445); chain MKSKQLNTDLFKVQAKQQIRLKNYDPASCNGFANRKEAEHQLKQDIKELADLQYQLYAENKRSVLIVFQAMDAAGKDGSIRHVFSGLNPQGCKVYSFKSPSANELDHDYLWRHYNKLPPRGEIGIFNRSHYENVLITRVHPEFLLNENLPDVHATNDITTEFWERRYRQIRDFEQTLTENGTTIIKFFLHLSKDEQKKRFMERIRKPAKNWKFSSADIRERQYWDDYQHAYEQAMRATSTEEAPWYIIPADNKWFTHVAIGNIIVETLQQMNIQMPEISSEEKDALKKAKKKLQNE
B5: POLK W214Y/W392H (Homo sapiens, UniProt Q9UBT6); chain MGLNDNKAGMEGLDKEKINKIIMEATKGSRFYGNELKKEKQVNQRIENMMQQKAQITSQQLRKAQLQVDRFAMELEQSRNLSNTIVHIDMDAFYAAVEMRDNPELKDKPIAVGSMSMLSTSNYHARRFGVRAAMPGFIAKRLCPQLIIVPPNFDKYRAVSKEVKEILADYDPNFMAMSLDEAYLNITKHLEERQNYPEDKRRYFIKMGSSVENDNPGKEVNKLSEHERSISPLLFEESPSDVQPPGDPFQVNFEEQNNPQILQNSVVFGTSAQEVVKEIRFRIEQKTTLTASAGIAPNTMLAKVCSDKNKPNGQYQILPNRQAVMDFIKDLPIRKVSGIGKVTEKMLKALGIITCTELYQQRALLSLLFSETSHHYFLHISLGLGSTHLTRDGERKSMSVERTFSEINKAEEQYSLCQELCSELAQDLQKERLKGRTVTIKLKNVNFEVKTRASTVSSVVSTAEEIFAIAKELLKTEIDADFPHPLRLRLMGVRISSFPNEEDRKHQQ
B6: iodotyrosine deiodinase (Haliscomenobacter hydrossis, UniProt F4KU78); chain MKQKPAFIPYAGAQFEPEEMLSKSAEYYQFMDHRRTVREFSNRAIPLEVIENIVMTASTAPSGAHKQPWTFVVVSDPQIKAKIRQAAEKEEFESYNGRMSNEWLEDLQPFGTDWHKPFLEIAPYLIVVFRKAYDVLPDGTQRKNYYVQESVGIACGFLLAAIHQAGLVALTHTPSPMNFLQKILQRPENERPFLLVPVGYPAEGAMVPDLQRKDKAAVMVVY
B7: enzyme A178R/D177A/P184R (Levilactobacillus brevis, UniProt Q03Q85); chain MKVTVVGCTHAGTFAIKQILAEHPDAEVTVYERNDVISFLSCGIALYLGGKVADPQGLFYSSPEELQKLGANVQMNHNVLAIDPDQKTVTVEDLTNHAQTTESYDKLVMTSGSWPIVPKIPGIDSDRVKLCKNWAHAQALIEDAKEAKRITVIGAGYIGAELAEAYSTTGHDVTLIARMARVMRKYFDADFTDVIEQDYRDHGVQLALGETVESFTDSATGLTIKTDKNSYETDLAILCIGFRPNTDLLKGKVDMAPNGAIITDDYMRSSNPDIFAAGDSAAVHYNPTHQNAYIPLATNAVRQGILVGKNLVKPTVKYMGTQSSSGLALYDRTIVSTGLTLAAAKQQGLNAEQVIVEDNYRPEFMPSTEPVLMSLVFDPDTHRILGGALMSKYDVSQSANTLSVCIQNENTIDDLAMVDMLFQPNFDRPFNYLNILAQAAQAKVAQSVNA
B8: TcC (Trypanosoma cruzi, UniProt Q4DGA3); chain MPREYEFAEKILFTEEEIRTRIMEVAKRIADDYKGKGLRPYVNPLVLISVLKGSFMFTADLCRALSDFNVPVRMEFICVSSYGEGVTSSGQVRMLLDTRHSIEGHHVLIVEDIVDTALTLNYLYHMYFTRRPASLKTVVLLDKREGRRVPFSADYVVANIPNAFVIGYGLDYDDTYRELRDIVVLRPEVYAEREAARQKKQRAIGSADTDRDAKREFHSKY
Chain of UniProt Q9STE6 (whole entry, looked up): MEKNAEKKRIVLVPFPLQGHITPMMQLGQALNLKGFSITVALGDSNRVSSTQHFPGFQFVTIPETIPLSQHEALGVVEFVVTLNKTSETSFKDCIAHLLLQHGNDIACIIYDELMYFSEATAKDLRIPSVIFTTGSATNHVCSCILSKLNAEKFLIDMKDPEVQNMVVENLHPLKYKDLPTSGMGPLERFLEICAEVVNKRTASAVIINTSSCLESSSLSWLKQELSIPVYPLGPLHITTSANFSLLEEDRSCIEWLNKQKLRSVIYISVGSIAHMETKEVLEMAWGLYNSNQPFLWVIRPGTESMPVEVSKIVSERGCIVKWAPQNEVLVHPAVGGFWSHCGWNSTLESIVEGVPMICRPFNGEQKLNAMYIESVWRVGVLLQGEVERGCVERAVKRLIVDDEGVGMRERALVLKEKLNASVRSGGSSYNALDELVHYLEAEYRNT
Chain of UniProt P19337 (whole entry, looked up): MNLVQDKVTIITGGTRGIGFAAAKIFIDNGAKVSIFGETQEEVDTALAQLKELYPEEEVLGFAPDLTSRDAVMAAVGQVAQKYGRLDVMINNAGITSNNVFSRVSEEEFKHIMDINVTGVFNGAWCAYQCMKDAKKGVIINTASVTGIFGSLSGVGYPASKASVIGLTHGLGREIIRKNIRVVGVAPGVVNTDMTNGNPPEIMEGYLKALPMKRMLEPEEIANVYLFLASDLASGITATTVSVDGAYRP
Chain of UniProt Q8QZR1 (whole entry, looked up): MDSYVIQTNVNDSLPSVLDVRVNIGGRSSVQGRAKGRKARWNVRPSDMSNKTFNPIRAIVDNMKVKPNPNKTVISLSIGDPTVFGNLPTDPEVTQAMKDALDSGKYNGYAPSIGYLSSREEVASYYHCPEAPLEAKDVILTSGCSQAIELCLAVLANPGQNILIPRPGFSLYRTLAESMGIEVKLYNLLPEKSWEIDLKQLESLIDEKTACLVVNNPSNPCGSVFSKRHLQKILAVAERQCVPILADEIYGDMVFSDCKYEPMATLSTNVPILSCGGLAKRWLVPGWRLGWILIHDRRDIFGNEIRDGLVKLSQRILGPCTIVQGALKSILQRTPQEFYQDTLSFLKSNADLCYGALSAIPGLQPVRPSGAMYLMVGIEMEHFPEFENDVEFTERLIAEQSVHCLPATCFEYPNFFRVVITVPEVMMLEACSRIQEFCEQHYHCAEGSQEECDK

| Substance | substrate | pH | temperature | setting | added | kcat/Km [M⁻¹ s⁻¹] |
| --- | --- | --- | --- | --- | --- | --- |
| PGDH2 (Oryza sativa, UniProt B7FAD2) | O=C(O)[C@H](O)COP(=O)(O)O | pH 9 | 25 °C | NaCl 0.1 M, apparent | NAD+ | 25300 ± 1100 |
| Tat (Mus musculus, UniProt Q8QZR1) | O=C(O)C(=O)Cc1ccc(O)cc1 | pH 7 | 38 °C | – | PLP | 22700 |
| B1 (pyc H216N) | Nc1ncnc2c1ncn2[C@@H]1O[C@H](COP(=O)(O)OP(=O)(O)OP(=O)(O)O)[C@@H](O)[C@H]1O | pH 7.8 | 30 °C | no pyruvate | NaHCO3 20 mM, acetyl CoA 0.25 mM, Mg2+ 5 mM | 140 |
| B2 (protein P94L) | O[C@H]1CCCc2ccccc21 | pH 7.4 | – | phosphate 400 mM, NADPH 250 µM printed | NADP+, reverse reaction | 36 ± 11 |
| B3 (enzyme P89Y) | NC(=O)c1ccc[n+](CCCO)c1 | pH 8 | 25 °C | – | – | 0.34 ± 0.11 |
| B4 (enzyme) | Nc1ncnc2c1ncn2[C@@H]1O[C@H](COP(=O)(O)O)[C@@H](O)[C@H]1O | pH 8 | 30 °C | – | – | 33000 |
| BaiA2 (Clostridium scindens, UniProt P19337) | C[C@H](CCC(=O)SCCNC(=O)CCNC(=O)[C@H](O)C(C)(C)COP(=O)(O)OP(=O)(O)OC[C@H]1O[C@@H](n2cnc3c(N)ncnc32)[C@H](O)[C@@H]1OP(=O)(O)O)[C@H]1CC[C@H]2[C@@H]3[C@H](O)C[C@@H]4CC(=O)CC[C@]4(C)[C@H]3C[C@H](O)[C@]12C | pH 8.7 | 37 °C | – | NADH | 76800 |
| B5 (POLK W214Y/W392H) | Nc1ccn([C@H]2C[C@H](O)[C@@H](COP(=O)(O)OP(=O)(O)OP(=O)(O)O)O2)c(=O)n1 | pH 7.5 | 23 °C | MgCl2 5 mM | G template | 10000 |
| B6 (iodotyrosine deiodinase) | COc1cc(C[C@H](N)C(=O)O)cc(I)c1O | pH 7.4 | 25 °C | – | – | 50000 ± 10000 |
| B7 (enzyme A178R/D177A/P184R) | NC(=O)C1=CN([C@@H]2O[C@H](COP(=O)(O)OP(=O)(O)OC[C@H]3O[C@@H](n4cnc5c(N)ncnc54)[C@H](O)[C@@H]3O)[C@@H](O)[C@H]2O)C=CC1 | pH 7.5 | 37 °C | per site | – | 52000 ± 21000 |
| alanine aminopeptidase (Neisseria meningitidis, UniProt Q9JYV4) | N=C(N)NCCC[C@H](N)C(=O)Nc1ccc2c(CC(N)=O)cc(=O)oc2c1 | pH 7.5 | 37 °C | – | – | 205000 ± 7000 |
| B8 (TcC) | Nc1nc2nc[nH]c2c(=O)[nH]1 | pH 8.3 | 37 °C | apparent | PRPP 1 mM, MgCl2 12 mM | 2.1e+06 ± 200000 |
| enzyme (Arabidopsis thaliana, UniProt Q9STE6) | CC(=O)N[C@H]1[C@@H](OP(=O)(O)OP(=O)(O)OC[C@H]2O[C@@H](n3ccc(=O)[nH]c3=O)[C@H](O)[C@@H]2O)O[C@H](CO)[C@@H](O)[C@@H]1O | pH 7.5 | 25 °C | – | – | 21300 |

A few entries again:
| Substance | substrate | pH | temperature | setting | added | kcat/Km [M⁻¹ s⁻¹] |
| --- | --- | --- | --- | --- | --- | --- |
| Tat (Mus musculus, UniProt Q8QZR1) | O=C(O)C(=O)Cc1ccc(O)cc1 | pH 7 | 38 °C | – | PLP | 22700 |
